Published values pooled from the literature.
Parts stem from different laboratories: compare values within a part only. Changes are numbered by the printed parent chain.

Sample 1
Target: ABI1, truncated, D143A, DHFR fusion (Arabidopsis thaliana)
Technique: DHFR PCA, deep sequencing
Medium: yeast
Setting: methotrexate growth selection, single substitutions
With: (+)-ABA 0 µM
Reference: wild-type fitted maximum
Reading: higher = stronger binding
Starting sequence: PYL1, truncated, DHFR fusion (Arabidopsis thaliana); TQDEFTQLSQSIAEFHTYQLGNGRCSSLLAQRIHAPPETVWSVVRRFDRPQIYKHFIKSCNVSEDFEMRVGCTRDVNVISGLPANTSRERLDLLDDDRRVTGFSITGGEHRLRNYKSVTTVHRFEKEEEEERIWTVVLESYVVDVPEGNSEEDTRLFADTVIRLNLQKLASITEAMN; partner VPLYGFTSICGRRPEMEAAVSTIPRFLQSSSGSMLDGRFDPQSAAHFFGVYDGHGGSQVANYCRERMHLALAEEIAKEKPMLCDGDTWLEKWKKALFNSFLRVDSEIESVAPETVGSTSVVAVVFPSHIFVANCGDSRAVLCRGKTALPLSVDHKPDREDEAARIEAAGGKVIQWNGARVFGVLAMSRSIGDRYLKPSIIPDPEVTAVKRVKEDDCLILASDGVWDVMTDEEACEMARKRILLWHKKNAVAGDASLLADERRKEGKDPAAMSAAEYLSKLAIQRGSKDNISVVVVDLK
| Variant | relative binding score |
| --- | --- |
| R163G | 9.7% |
| V78T | 23.1% |
| F15A | 7.47% |
| R69V | 36.5% |
| L28R | 1.2% |
| D48Y | -2.65% |
| P146R | 3.08% |
| F103G | -3.18% |
| R49C | 21.9% |
| E67K | 18.7% |
| V70Y | 3.52% |
| T6L | 34.4% |

Sample 2
Target: RING finger protein unkempt homolog, zinc fingers 1-6, GST-SBP tag (UNK, Homo sapiens, UniProt Q9C0B0, residues 30-357)
Chain of UniProt Q9C0B0 (30-357, looked up): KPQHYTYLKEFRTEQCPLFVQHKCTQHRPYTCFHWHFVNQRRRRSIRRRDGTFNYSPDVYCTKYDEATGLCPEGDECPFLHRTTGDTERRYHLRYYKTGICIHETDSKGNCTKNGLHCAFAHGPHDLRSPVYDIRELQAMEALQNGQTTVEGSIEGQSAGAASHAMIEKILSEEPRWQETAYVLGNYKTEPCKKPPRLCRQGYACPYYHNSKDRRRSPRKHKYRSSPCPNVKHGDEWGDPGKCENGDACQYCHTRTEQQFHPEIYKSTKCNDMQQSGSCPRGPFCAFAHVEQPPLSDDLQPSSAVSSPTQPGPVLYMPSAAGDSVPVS
Technique: RNA Bind-n-Seq
Form: RNA
Medium: in vitro
Tested at: not given
Setting: RNA with constant flanks, ends assumed
Reference: input RNA pool
Reading: higher = stronger binding
Constant ends, left off below: GGGAGUUCUACAGUCCGACGAUC … CAACAGAGGAUUGAGCAUCA
| Strand | bound/input enrichment |
| --- | --- |
| GCAGGGCAAGAGGAUUAUGACAGAUUACGACCGCUGAGUUAUCCACAAACAGAUGUAUUUCCCGUCUGUUUUUCAGUGGUCUCUCCAUCUUCAUUUGAAAACGUGAAAGAAAAGUGGGUG | 0.388 ratio |
| ACCUCUUUAGUGUGUUCUGUGACGCUGCUCAUUACGAUUCUGUGUUCUACUUUGAUCCUUUCCGCUGUUUUCAAAUAUGGCCACUUUUCCCUGUAAGUUUUGUACAGCUAAGUGUUUUCU | 0.238 ratio |
| AGCAUUUUUUCCUGUUAACUUUAUAUUACAAAAUCCGUUCUACCAUAACAAUACAGAGGAACCCGCUGUGUUACUGCACCAGUGUUAUAGGUAACUUCAGUAUAUUAUGAACAAAUCAAA | 0.613 ratio |
| UCUUACACCAUCCAGUCUGAACUGGGAGACUACGACCCAGAACUCCAUGGCGUGGAUUAUGUCCGUGAUUUUAAACUGGCCCCGAAUCAGACCAAGGAACUUGAAGAGAAGGUCAUGGAA | 0.154 ratio |
| GAGUCUGACUCUUAACCCUUUUGAGAAUUGCUCUGAAUUUUGUUCUCAGGCAUUAUACAGUCCGUAAUUAAACUUUAAAUGCCAUUACUACUUGUUUUUUCAUAUCCCAAGAAUAAGAAC | 0.145 ratio |
| AAGGAACUGGAAGUACCUCAUUUUCACCAUGAGCUUGUAUAUGAAGCUAUUAUAAUGGUUUCCGAGUCAACUGGAGAAAGUACAUUUAAGAUGAUUUUGGAUUUAUUAAAGUCCCUUUGG | 0.182 ratio |
| AAUAUCAUCCCUAGUACUUUUUUGCCUAAACAAGAAGGACCUUUUUUCUUGGACUUUAACCGUACUGUCCCCAUCAAGACAACACAACUCCAAUGAUUGAGAACUCUCAGCUAUUACUGG | 0.742 ratio |
| UGUGUGUGUGUGUGUGUGUGUGUGUGUGUGUGUGUGUGAGAGAGAGAGAGAGAGAGAUUUGUUUGCCGCCCGUGAAGGCUCCAGCAUGCUGGUCUGACUACAAAGGCCACCUCCCUUACA | 0.36 ratio |
| CCCCUAUCUAGGCCUUCUUACGAGCCAAAACCUGCCCCUACUCCUCCUAGACCUAACCUGACCCGAAAAGCUAUUACCUAAAACAAUUUCACAGCACCAAAUCUCCACCUCCAUCAUCAC | 3.45 ratio |
| AUGAAGCCAAAUAUUGAACCUCCUGAGAAUGUGGAGUGGAGUGGUGCUGAAGCCUCCAUGUUCCGAGUCCUCAUUGGUACUUACUACGAUAACUUUUGUGCCAUUGCUAGGCUAAUUGGG | 0.283 ratio |
| GGCUAUUUGAAAUAGACUAGAUUGUGUUGUCAAAUCAAGAAUGGGUGUGCAUGUGCUUGUCUCCGAAGUAUCACUGCUUUUUGCAUCUUAACUGCAGUUAAUUUUCCUUCCGACUGCGGU | 0.382 ratio |

Sample 3
Target: RNA binding protein fox-1 homolog 2, RRM domain, GST-SBP tag (RBFOX2, Homo sapiens, UniProt O43251-10, residues 100-194)
Technique: RNA Bind-n-Seq
Form: RNA
Medium: in vitro
Tested at: 365 nM
Setting: natural RNA segment, single round, ends assumed
Reference: no-protein control
Reading: higher = stronger binding
Constant ends, left off below: GGGAGUUCUACAGUCCGACGAUC … UGGAAUUCUCGGGUGCCAA
Target sequence (chain): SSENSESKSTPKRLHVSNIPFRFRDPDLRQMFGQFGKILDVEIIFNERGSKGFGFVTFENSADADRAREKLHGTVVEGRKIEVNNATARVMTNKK
| Strand | RBNS enrichment (R) |
| --- | --- |
| CAAGGGCAGUGAGCAAGAGAAAUGUCUAAAGCUGCUUCUCCCAACACCGUCCAAAGUCUCCACUGCCUGAGUUUUGUUUCGGCUGGUUUGAACUCAUUUCGGGUGUGUGC | 1.05 |
| GCAGCCCGCCUUGUGCCUUAGCCCCGCCCAAGCCACCAGGGAGCCAAUCUCAGCCCUCCACGCCAAGGAGCCUUGCCCACCAGCCAAUCAAUGUUCGUCUCUGCCCUGAU | 0.583 |
| GGGUCUUCCUGCCUCACCACCUUGCUGUGCAUGAUGAUGCUGACCCACCCCCUUUACCUCCCUUCCCAGAACUGAUACACGGGUGUUAUUAUUCAGGAAAAAAACUGAGC | 1.31 |
| GUAAAAGCAAGGGGCCAGGAUUGUGCUGGCAGCCAGGGAGACAGUAGUGCCUGCGGAAGUUGGCAGAGGAGGCCUUGGCAUGCUCGCAUCCAGGCAGUCAUGUGUGAUGG | 0.689 |
| GUGUCAGACACUCAACUGACAUUACUACUUUAGUUCCUUUUGCUUUUUUCAUUUAUCUGUGGAAACAACAGAGGUCUCUCUCUAAACCUGUUUUGUGUCAGUUUGGUGUG | 0.265 |
| GUCAGUAAUGAACUGGCUGCAAGGGGACAGCACCUCUCAGCCUGCACAGCAGCUUGUCAGAGUGAGAACUGUCCUGGGGCCAGAGACUAACAUGCCCAGGUGGUGUCGGC | 0.749 |
| GAUUAAAAACUUUCUCUUCCACGGACUUUAAGCCCGGUAGGAAAGAGAGAGGAGGAGGGGGAAAGAGCAAACCAUCUUUCUUCCAGGCCCUUGACUGCUCCUUUGGGCUG | 0.312 |
| UCUUGGCCACCUCCCCAUUCACAACUACUUUCUCGCUCCCAGAAGGUUGAUCAGAUAUUCUACAAUCACAGAGUAGCAAGGACGUUUGAGAUGGGUAUAUCAGUAAGAAG | 0.442 |
| AUAGUACACACUAAGUUUCCCACUAGCAGAGUCCUCGCCAUGUCAUUUCUACCUCCAAAGUCAUCAGAGCCUGCUUGUCCACAUCUGGUCCAGGUGGGAGUACAAGGAAG | 0.319 |
| UCUUGGGUCUAAUCUUUCCCCUUGACCCAGAACUUCCUCCCCACAAAAAUGCCUUUAAAAACCUUCCUGAGACUUAAGCAUUCUGCCCCACUUACUAACUGCCAGUUCUC | 1.33 |
| CUGGUGGUUCUUCUGUUCUCAAGCCUUUCAGGUGAGGACACAUGGCCUGGUGAUGCAGCUGGCUGGACCAGGCUCCCCCACAGCCUACUCCCAAGGGCUGGCUGCUUCUG | 0.355 |
| CUUGGGACCUGGUUUGGGUGAGGGACCACCAGGGAGCCCAUGCUCUAUGGCUCCCUUCCCUUCUUACUGGUUCAGGGUAGCUUAUGCCUCAGGGUCAGAGCCCCUGAUCU | 0.171 |

Sample 4
Target: CCND3, cyclin fold, Cln2 fusion (human)
Technique: yeast growth competition, sequencing
Medium: yeast
Setting: weak parent motif
Reference: not given
Reading: higher = stronger binding
Starting sequence: E2F2 docking peptide (human); LPAKRKLDLEGIG
| Variant | normalised enrichment score |
| --- | --- |
| LPAKRKLDAEGIG [L9A] | 0.0692 |
| LPAKRKLALEGIG [D8A] | 0.0702 |
| LPAKRKLDLAGIG [E10A] | 0.109 |
| LPAKRKLDLEGAG [I12A] | 0.075 |
| LPAKRKLDFEGIG [L9F] | 0.476 |
| LPAARKLDLEGIG [K4A] | 0.227 |
| LPAKRKADLEGIG [L7A] | 0.0234 |

Sample 5
Target: Phosphate system positive regulatory protein PHO4, full length, GST-tagged (PHO4, Saccharomyces cerevisiae, UniProt P07270, residues 1-312)
Technique: competition protein-binding microarray
Form: double-stranded DNA, one strand shown
Medium: in vitro
Tested at: 2 µM
Setting: whole 60-bp probe, lowest competitor level
With: Cbf1 competitor, 0.05 µM
Reading: higher = stronger binding
Constant ends, left off below: … GTCTTGATTCGCTTGACGCTGCTG
Residues (chain): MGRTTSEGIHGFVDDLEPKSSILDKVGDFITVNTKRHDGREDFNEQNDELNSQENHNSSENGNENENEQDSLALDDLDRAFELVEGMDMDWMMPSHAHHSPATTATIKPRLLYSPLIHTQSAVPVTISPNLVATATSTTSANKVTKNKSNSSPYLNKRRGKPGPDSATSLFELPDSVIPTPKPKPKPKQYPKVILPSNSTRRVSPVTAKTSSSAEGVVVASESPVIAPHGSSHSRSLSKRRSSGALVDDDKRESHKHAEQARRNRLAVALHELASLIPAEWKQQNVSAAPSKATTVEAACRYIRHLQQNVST
| Strand | fluorescence intensity |
| --- | --- |
| ATATAGTAAATAAAACACGTGATGGATTTGAAATGT | 18900 a.u. |
| GTCTTGTCTCATTGGGCTGTGGGTGTCCCCACTTCA | 4500 a.u. |
| AACTCCAAATATCTTCACGTGGCTGCCTGTTCTAAA | 15500 a.u. |
| CTGGGCCCGGGACCCCACGTGGGACGCGCGAGGACC | 16500 a.u. |
| TCGGTGCGATTATTCTTCGTGCTTTAACAAGATGAG | 6710 a.u. |
| AGCCCGCTTCCCGACCACGTGGAGGAACCCTCCCCA | 18200 a.u. |
| CTTCTGTAAATTTGCGGAGTGGGTGGACGCGCCCCG | 4370 a.u. |
| TGCGCAACAACTTGATCCGTGGGTGTATGTCTAGAA | 6320 a.u. |
| TTCGGGTGCCAATTTAGCGTGCTTTGATCTAACTAT | 5670 a.u. |
| ACTCAGGTTATCAAGTTCGTGCAAACTATTCAAGAA | 6020 a.u. |
| CTATTGATATGCTTGCATGTGGACGCAAGCAGACGC | 8000 a.u. |
| CCTTGGTTGACTGCAAACGTGTGGAAATACGGAAAG | 9960 a.u. |
| AGGTGCAGCCCCTGCCACGTGGGATGCGGTGTGCCC | 17500 a.u. |
| CTTCTGTAAATTTGACGTGTGGGTGGACGCGCCCCG | 5680 a.u. |
| GAACCATTGTCTTTGCACGTTGACACCTATGGTACT | 10700 a.u. |
| CTTTCCCGATCTTGAGATGTGGGTGTAGCACATTTG | 4890 a.u. |
| AAATTACTAAGTTGTGTTGTGGGTGACGCCGTATGA | 5100 a.u. |
| CTTCTGTAAATTTGCCCGGTGGGTGGACGCGCCCCG | 3730 a.u. |
| TTGCTAACGGATTAAAACGTGTGGAATTATTGTTGC | 11600 a.u. |
| TAGTCTGCGGAGAGCAACGTGCAAAAACTAAAGGTA | 12300 a.u. |

Some of these lines once more (sample 3):
| Strand | RBNS enrichment (R) |
| --- | --- |
| GUAAAAGCAAGGGGCCAGGAUUGUGCUGGCAGCCAGGGAGACAGUAGUGCCUGCGGAAGUUGGCAGAGGAGGCCUUGGCAUGCUCGCAUCCAGGCAGUCAUGUGUGAUGG | 0.689 |
| GUGUCAGACACUCAACUGACAUUACUACUUUAGUUCCUUUUGCUUUUUUCAUUUAUCUGUGGAAACAACAGAGGUCUCUCUCUAAACCUGUUUUGUGUCAGUUUGGUGUG | 0.265 |
| GUCAGUAAUGAACUGGCUGCAAGGGGACAGCACCUCUCAGCCUGCACAGCAGCUUGUCAGAGUGAGAACUGUCCUGGGGCCAGAGACUAACAUGCCCAGGUGGUGUCGGC | 0.749 |
| GAUUAAAAACUUUCUCUUCCACGGACUUUAAGCCCGGUAGGAAAGAGAGAGGAGGAGGGGGAAAGAGCAAACCAUCUUUCUUCCAGGCCCUUGACUGCUCCUUUGGGCUG | 0.312 |
| UCUUGGCCACCUCCCCAUUCACAACUACUUUCUCGCUCCCAGAAGGUUGAUCAGAUAUUCUACAAUCACAGAGUAGCAAGGACGUUUGAGAUGGGUAUAUCAGUAAGAAG | 0.442 |
| AUAGUACACACUAAGUUUCCCACUAGCAGAGUCCUCGCCAUGUCAUUUCUACCUCCAAAGUCAUCAGAGCCUGCUUGUCCACAUCUGGUCCAGGUGGGAGUACAAGGAAG | 0.319 |
| UCUUGGGUCUAAUCUUUCCCCUUGACCCAGAACUUCCUCCCCACAAAAAUGCCUUUAAAAACCUUCCUGAGACUUAAGCAUUCUGCCCCACUUACUAACUGCCAGUUCUC | 1.33 |
